Measured values collected from several papers.
Compare with care: the assays were run in different laboratories.
Organism: Escherichia coli

CCCCCCCCCCCCCCCC(=O)NCCCC[C@H](N)C(=O)N[C@@H](CCCCN)C(=O)N[C@@H](CCCCN)C(=O)N[C@@H](CCCCN)C(=O)N[C@@H](CCCCN)C(=O)N[C@@H](CCCCN)C(N)=O — MBC (K12): 128 µg/mL
CCCCCC(=O)NCC(=O)N[C@@H](CC(C)C)C(=O)N[C@@H](CC(C)C)C(=O)N[C@@H](CCCCN)C(=O)N[C@@H](CCCNC(=N)N)C(=O)N[C@H](C(=O)N[C@@H](CCCCN)C(=O)N[C@H](C(=O)N[C@@H](CC(C)C)C(=O)N[C@@H](CC(C)C)C(=O)NCCCC[C@H](NC(=O)[C@H](CC(C)C)NC(=O)[C@H](CC(C)C)NC(=O)[C@@H](NC(=O)[C@H](CCCCN)NC(=O)[C@@H](NC(=O)[C@H](CCCNC(=N)N)NC(=O)[C@H](CCCCN)NC(=O)[C@H](CC(C)C)NC(=O)[C@H](CC(C)C)NC(=O)CNC(=O)CCCCC)[C@@H](C)CC)[C@@H](C)O)C(N)=O)[C@@H](C)O)[C@@H](C)CC — FIC index (checkerboard; ATCC 25922; together with: polymyxin B): 0.125
CC[C@H](C)[C@H](NC(=O)[C@H](CCCCN)NC(=O)[C@H](CCCCN)NC(=O)[C@H](CC(C)C)NC(=O)[C@H](CCCCN)NC(=O)[C@H](CCC(=O)O)NC(=O)[C@H](CCCCN)NC(=O)[C@@H](NC(=O)[C@H](CCCCN)NC(=O)[C@H](CC(N)=O)NC(=O)[C@H](CCCNC(=N)N)NC(=O)[C@H](Cc1ccccc1)NC(=O)[C@H](CCCCN)NC(=O)[C@H](CCCNC(=N)N)NC(=O)[C@H](CC(C)C)NC(=O)[C@H](CCCNC(=N)N)NC(=O)[C@H](CCCCN)NC(=O)[C@H](CCCNC(=N)N)NC(=O)[C@@H](N)CC(C)C)[C@@H](C)CC)C(=O)NCC(=O)N[C@@H](CCC(N)=O)C(=O)N[C@@H](CCCCN)C(=O)N[C@H](C(=O)N[C@@H](CCC(N)=O)C(=O)NCC(=O)N[C@@H](Cc1ccccc1)C(=O)N[C@H](C(=O)N1CCC[C@H]1C(=O)N[C@@H](CCCCN)C(=O)N[C@@H](CC(C)C)C(=O)O)C(C)C)[C@@H](C)CC — lethal concentration (inhibition zone; ATCC 25922): 1.63 µM
CNC(=O)c1cccc(-c2ccc(O[C@H]3O[C@H](CO)[C@@H](O)[C@H](O)[C@@H]3O)cc2)c1 — IC50 (biofilm formation, inhibitor; uropathogenic UTI89): 1.35 µM
O=C(CCCOc1ccc(Cl)cc1Cl)N/N=C/c1ccc[nH]1 — growth inhibition (TolC; 50 µM): 67%
CC[C@H](C)[C@H](NC(=O)[C@H](CCCCN)NC(=O)[C@H](CCCCN)NC(=O)[C@H](CC(C)C)NC(=O)[C@H](CCCCN)NC(=O)[C@H](CCC(=O)O)NC(=O)[C@H](CCCCN)NC(=O)[C@@H](NC(=O)[C@H](CCCCN)NC(=O)[C@H](CC(N)=O)NC(=O)[C@H](CCCNC(=N)N)NC(=O)[C@H](Cc1ccccc1)NC(=O)[C@H](CCCCN)NC(=O)[C@H](CCCNC(=N)N)NC(=O)[C@H](CC(C)C)NC(=O)[C@H](CCCNC(=N)N)NC(=O)[C@H](CCCCN)NC(=O)[C@H](CCCNC(=N)N)NC(=O)[C@H](CC(C)C)NC(=O)[C@@H](N)CC(C)C)[C@@H](C)CC)C(=O)NCC(=O)N[C@@H](CCC(N)=O)C(=O)N[C@@H](CCCCN)C(=O)N[C@H](C(=O)N[C@@H](CCC(N)=O)C(=O)NCC(=O)N[C@@H](Cc1ccccc1)C(=O)N[C@H](C(=O)N1CCC[C@H]1C(=O)N[C@@H](CCCCN)C(=O)N[C@@H](CC(C)C)C(=O)N[C@H](C(=O)N1CCC[C@H]1C(=O)N[C@@H](CCCNC(=N)N)C(=O)N[C@H](C(=O)N[C@@H](CCC(=O)O)C(=O)N[C@@H](CO)C(=O)O)[C@@H](C)O)C(C)C)C(C)C)[C@@H](C)CC — lethal concentration (inhibition zone; DH5α): 2.21 µM
CC[C@H](C)[C@H](NC(=O)[C@H](CO)NC(=O)[C@H](CO)NC(=O)[C@H](Cc1ccccc1)NC(=O)CN)C(=O)N[C@@H](Cc1ccccc1)C(=O)N[C@@H](CCCNC(=N)N)C(=O)NCC(=O)N[C@H](C(=O)N[C@@H](C)C(=O)N[C@@H](CCCCN)C(=O)N[C@@H](Cc1ccccc1)C(=O)N[C@@H](C)C(=O)N[C@@H](CO)C(=O)N[C@@H](CCCCN)C(=O)NCC(=O)N[C@@H](CC(C)C)C(=O)NCC(=O)N[C@@H](CCCCN)C(N)=O)C(C)C — MBC (ATCC 8739; pretreated trypsin 1 mg/mL): > 128 µM
CCCCCCCCCCCCCCCCC(=O)N[C@@H](CCCCN)C(=O)N[C@@H](CCCCN)C(=O)N[C@@H](CCCCN)C(=O)N[C@@H](CCCCN)C(=O)N[C@@H](CCCCN)C(N)=O — MBC (K12): 16 µg/mL
C[C@]1(COC(=O)c2ccc(O)c(O)c2)[C@H](C(=O)O)N2C(=O)/C(=C/c3ccccn3)[C@H]2S1(=O)=O — MIC of ceftazidime (broth microdilution; TG1 expressing CMY-2; 16 µg/mL): ≤ 0.06 µg/mL
CC[C@H](C)[C@H](NC(=O)[C@H](CO)NC(=O)[C@H](CO)NC(=O)[C@H](Cc1ccccc1)NC(=O)CN)C(=O)N[C@@H](Cc1ccccc1)C(=O)N[C@@H](CCCNC(=N)N)C(=O)NCC(=O)N[C@H](C(=O)N[C@@H](C)C(=O)N[C@@H](CCCCN)C(=O)N[C@@H](Cc1ccccc1)C(=O)N[C@@H](C)C(=O)N[C@@H](CO)C(=O)N[C@@H](CCCCN)C(=O)NCC(=O)N[C@@H](CC(C)C)C(=O)NCC(=O)N[C@@H](CCCCN)C(=O)N[C@@H](CC(=O)O)C(=O)N[C@@H](CC(C)C)C(=O)N[C@@H](C)C(=O)N[C@@H](CCCNC(=N)N)C(N)=O)C(C)C — time to complete killing (ATCC 8739; 4 × MIC): 30 min
CC[C@H](C)[C@H](NC(=O)[C@H](CCCCN)NC(=O)[C@H](CCCCN)NC(=O)[C@H](CC(C)C)NC(=O)[C@H](CCCCN)NC(=O)[C@H](CCC(=O)O)NC(=O)[C@H](CCCCN)NC(=O)[C@@H](NC(=O)[C@H](CCCCN)NC(=O)[C@H](CC(N)=O)NC(=O)[C@H](CCCNC(=N)N)NC(=O)[C@H](Cc1ccccc1)NC(=O)[C@H](CCCCN)NC(=O)[C@H](CCCNC(=N)N)NC(=O)[C@H](CC(C)C)NC(=O)[C@H](CCCNC(=N)N)NC(=O)[C@H](CCCCN)NC(=O)[C@H](CCCNC(=N)N)NC(=O)[C@H](CC(C)C)NC(=O)CN)[C@@H](C)CC)C(=O)NCC(=O)N[C@@H](CCC(N)=O)C(=O)N[C@@H](CCCCN)C(=O)N[C@H](C(=O)N[C@@H](CCC(N)=O)C(=O)NCC(=O)N[C@@H](Cc1ccccc1)C(=O)N[C@H](C(=O)N1CCC[C@H]1C(=O)N[C@@H](CCCCN)C(=O)N[C@@H](CC(C)C)C(=O)N[C@@H](C)C(=O)N1CCC[C@H]1C(=O)N[C@@H](CCCNC(=N)N)C(=O)N[C@H](C(=O)N[C@@H](CC(=O)O)C(=O)N[C@@H](Cc1ccc(O)cc1)C(=O)O)[C@@H](C)O)C(C)C)[C@@H](C)CC — lethal concentration (inhibition zone; DH5α): 1.6 µM
CC(C)C[C@H](NC(=O)[C@H](CC(C)C)NC(=O)[C@H](CCCCN)NC(=O)[C@H](CC(C)C)NC(=O)[C@H](CC(C)C)NC(=O)[C@H](CCCCN)NC(=O)[C@H](CCCCN)NC(=O)[C@H](CC(C)C)NC(=O)[C@H](CC(C)C)NC(=O)[C@H](CCCCN)NC(=O)[C@H](CCCCN)NC(=O)[C@H](CC(C)C)NC(=O)[C@H](CC(C)C)NC(=O)[C@H](CCCCN)NC(=O)[C@@H](N)CC(C)C)C(N)=O — LC99.9 (ATCC 8937, RPMI medium; 24 h, 37 °C): 3.7 µM
CC[C@H](C)[C@H](NC(=O)[C@H](CCCNC(=N)N)NC(=O)[C@H](CCCCN)NC(=O)[C@H](CC(C)C)NC(=O)[C@H](CC(C)C)NC(=O)CN)C(=O)N[C@@H](CCCCN)C(=O)N[C@H](C(=O)N[C@@H](CC(C)C)C(=O)N[C@@H](CC(C)C)C(=O)NCCCC[C@H](NC(=O)[C@H](CC(C)C)NC(=O)[C@H](CC(C)C)NC(=O)[C@@H](NC(=O)[C@H](CCCCN)NC(=O)[C@@H](NC(=O)[C@H](CCCNC(=N)N)NC(=O)[C@H](CCCCN)NC(=O)[C@H](CC(C)C)NC(=O)[C@H](CC(C)C)NC(=O)CN)[C@@H](C)CC)[C@@H](C)O)C(N)=O)[C@@H](C)O — FIC index (checkerboard; ATCC 25922; together with: gentamicin): 0.312
O=C(O)[C@@H]1Cc2c([nH]c3ccccc23)[C@@H](c2ccc(Cl)cc2F)N1 — growth inhibition (BL21(DE3); 250 µM, 18 h): 0%
CC[C@H](C)[C@H](NC(=O)[C@@H](CCCNC(=N)N)NC(=O)[C@H](CCCNC(=N)N)NC(=O)[C@@H]1CCCN1C(=O)[C@@H]1CCCN1C(=O)[C@H](CCCNC(=N)N)NC(=O)[C@@H]1CCCN1C(=O)[C@H](CCCNC(=N)N)NC(=O)[C@@H]1CCCN1C(=O)[C@H](CC(C)C)NC(=O)[C@H](Cc1ccc(O)cc1)NC(=O)[C@@H]1CCCN1C(=O)[C@@H]1CCCN1C(=O)[C@H](CCCCN)NC(=O)[C@H](CC(=O)O)NC(=O)[C@@H](N)C(C)C)C(=O)N[C@@H](Cc1ccc(O)cc1)C(=O)N[C@@H](CC(N)=O)C(=O)N[C@H](CCCNC(=N)N)C(=O)N[C@@H](CC(N)=O)C(=O)NCC(=O)N1CCC[C@H]1C(=O)N[C@@H](CCCNC(=N)N)C(=O)N[C@@H](CC1CCCCC1)C(=O)N[C@@H](Cc1ccccc1)C(=O)N[C@@H](CCC(N)=O)C(=O)N[C@@H](CC(C)C)C(=O)N[C@@H](CC(=O)O)C(=O)O — MBC (broth microdilution; D22): 2 µg/mL
CC(C)C[C@H](NC(=O)[C@H](CCCNC(=N)N)NC(=O)CNC(=O)CNC(=O)[C@@H](N)CCCNC(=N)N)C(=O)N[C@H]1CSSC[C@@H](C(=O)N[C@H](C(=O)NCC(=O)N[C@@H](CCCNC(=N)N)C(=O)O)C(C)C)NC(=O)[C@H](C(C)C)NC(=O)[C@@H]2CSSC[C@H](NC(=O)[C@H](Cc3ccc(O)cc3)NC1=O)C(=O)N[C@@H](CCCNC(=N)N)C(=O)N[C@@H](CCCNC(=N)N)C(=O)N[C@@H](CCCNC(=N)N)C(=O)N[C@@H](Cc1ccccc1)C(=O)N2 — log2 fold change (bacterial growth; W3110; concentration not given, 4 h, surface-displayed peptide, together with: IPTG 100 µM; reference: uninduced): negative
